Published values pooled from the literature.
Numbered parts are unrelated; each lists some results of a single study.

Sample 1
Target: Interferon regulatory factor 5, full length, phosphomimetic (IRF5, Homo sapiens, UniProt Q13568-2, residues 1-514, K96S/S451D/S453D/S456D/S462D)
Technique: protein-binding microarray
Form: double-stranded DNA, one strand shown
Medium: in vitro
Tested at: 250 nM
Setting: 60-bp whole probe
With: salmon DNA 0.4 mg/ml
Relative to: random background probes
Direction: higher = stronger binding
Quantity: log fluorescence
Shared flanks, not repeated: GCCTAGCAC … GTCTTGATTCGCTTGACGCTGCTG
TACGAACTGAGTCTCGAGACGTGCTAG: -0.124 z-score
GACGGTCTCAGTCTCGAGACGTGCTAG: -0.0726 z-score
GACGGTCTCGGGTATCGGGACGTGCTA: 0.536 z-score
GACTGTATCGGTATCGGGACGTGCTAG: 6.46 z-score
GACGGACTGGGGTATCGGTACGTGCTA: 1.02 z-score
TTAGGACTGGGTTTCGGTTGGTGCTAG: 7.58 z-score
TCATCTCCCATTATATTACTGTGCTAG: 0.499 z-score
TTAGGACTGCATATCCTTTAGTGCTAG: -0.442 z-score
GACGGTCTCCTGATCCTGACGTGCTAG: -0.667 z-score
TTAGGTTTCCTGTCCCTTTAGTGCTAG: 0.275 z-score
TACGGACTGCTTATCCTGACGTGCTAG: -0.153 z-score
TTAGGTATCGACAGTGGGTTAGTGCTA: 2.49 z-score
GACGAACTGGGGTATCGAGAAGTGCTA: 0.293 z-score
GACGGTTTCGGGTTCCGGGACGTGCTA: 7.59 z-score
TTAGCTTTCGGTATCGGTTAGTGCTAG: 11.7 z-score
TTAGATTTCCGGACTGGATTAGTGCTA: 0.155 z-score
TCACATTTTCTCTTATTACTGTGCTAG: 2.08 z-score

Sample 2
Target: Ras GTPase-activating protein-binding protein 1, C-terminal RGG region (G3BP1, Homo sapiens, UniProt Q13283)
Chain of UniProt Q13283 (whole entry, looked up): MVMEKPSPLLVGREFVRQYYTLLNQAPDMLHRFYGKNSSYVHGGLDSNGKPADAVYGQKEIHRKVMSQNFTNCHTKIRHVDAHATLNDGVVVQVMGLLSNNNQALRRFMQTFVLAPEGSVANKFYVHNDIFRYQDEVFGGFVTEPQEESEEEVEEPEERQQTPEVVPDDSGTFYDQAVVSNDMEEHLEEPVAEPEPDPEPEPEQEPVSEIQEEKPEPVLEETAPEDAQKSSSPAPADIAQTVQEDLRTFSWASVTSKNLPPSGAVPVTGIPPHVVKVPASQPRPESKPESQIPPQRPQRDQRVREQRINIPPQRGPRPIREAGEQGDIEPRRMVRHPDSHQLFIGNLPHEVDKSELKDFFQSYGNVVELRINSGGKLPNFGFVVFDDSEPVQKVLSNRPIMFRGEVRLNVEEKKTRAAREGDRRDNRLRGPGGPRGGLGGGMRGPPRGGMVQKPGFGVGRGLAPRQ
Technique: RNA Bind-n-Seq
Form: RNA
Medium: in vitro
Tested at: 1 µM
Setting: whole 134-nt RNA, ends assumed
With: 150 mM KCl
Relative to: input library
Direction: higher = stronger binding
Quantity: log2 enrichment
Shared flanks, not repeated: GGGAGUUCUACAGUCCGACGAUC … UGGAAUUCUCGGGUGUCAAGG
UCAAGUCCUGUGCUACACAUCGUAUGUACCGAAUCGGGGCCGGGCCGGGCCGGGAAAGUAUUAUGUUACGCCGUUCGGAUCUGCACUUCC: -0.0574
GUCCUGUGCUACACAUCGUAUGUACCGAAUCGGGGUUUUUUGGUUUUUUGGUUUUUUGGAAAGUAUUAUGUUACGCCGUUCGGAUCUGCA: -1.56
UAACUUUAGAGGAGGAUCUGAUGGAUAUGGCAGUGGACGUGGAUUUGGGGAUGGCUAUAAUGGGUAUGGAGGAGGACCUGGAGCUGGCAA: -0.665
CUCAAGUCCUGUGCUACACAUCGUAUGUACCGAAUCGGAAGGAAGGGGAAGGGAAAGUAUUAUGUUACGCCGUUCGGAUCUGCACUUCCA: -0.986
AAGUCCUGUGCUACACAUCGUAUGUACCGAAUCAAAUUUAAAUUUUUAAAUUUAAAAAAGUAUUAUGUUACGCCGUUCGGAUCUGCACUU: -2.86
AAGUCCUGUGCUACACAUCGUAUGUACCGAAUCGGGGUGGGGUGGGGAAAAAGGGGAAAGUAUUAUGUUACGCCGUUCGGAUCUGCACUU: 1.29
CAAGUCCUGUGCUACACAUCGUAUGUACCGAAUCGGUUUGGAAAGGAAAAAAAGGAAAGUAUUAUGUUACGCCGUUCGGAUCUGCACUUC: -1.49
CACAGACAACACGCACCCACACAGACACAGAGGGAAGGGGUUGGGAUGGGGACAUGGUGCACAGCAGGGCGGGGUAGGACCCCAGCCCCU: 0.0889
GCAGGAAGUAAAAACAAAUGGAAAUGCUUCGGACAGUGGCAGGGGUGGGGGUUGCUAAGGAAAGGGUGGGAUGGGAGUGGGUAAAGAGUU: 1.27
ACCAUGCAGGUGGGCAUCUUUGGGAAGUGGGGCAAGGGGGGGAUAGGGAGGGGGGUAACACUUUGGGAACAGGUCGUCCCAGGUCGUUUC: 2.26
UCCUGUGCUACACAUCGUAUGUACCGAAUCAAAUUUAAAUUUUUUUAAACCCCCCCAAAAAAGUAUUAUGUUACGCCGUUCGGAUCUGCA: -0.568
AGUCCUGUGCUACACAUCGUAUGUACCGAAUCGGGAAAAAGGGUUUUUGGGUUUGGGAAAGUAUUAUGUUACGCCGUUCGGAUCUGCACU: 0.191
GGUGGACUAUGGUGCAACAGCAGAAGAGCUGGAAGCUCACUUUCAUGGCUGUGGUUCAGUCAACCGUGUUACCAUACUGUGUGACAAAUU: -1.17
UCCUGUGCUACACAUCGUAUGUACCGAAUCGGGGUUUUUGGGGUUUUUGGGGUUUUUGGAAAGUAUUAUGUUACGCCGUUCGGAUCUGCA: -0.0749

Sample 3
Target: RNA binding protein fox-1 homolog 2, RRM domain, GST-SBP tag (RBFOX2, Homo sapiens, UniProt O43251-10, residues 100-194)
Technique: RNA Bind-n-Seq
Form: RNA
Medium: in vitro
Tested at: 365 nM
Setting: natural RNA segment, single round, ends assumed
Relative to: no-protein control
Direction: higher = stronger binding
Quantity: RBNS enrichment (R)
Shared flanks, not repeated: GGGAGUUCUACAGUCCGACGAUC … UGGAAUUCUCGGGUGCCAA
Target sequence (chain): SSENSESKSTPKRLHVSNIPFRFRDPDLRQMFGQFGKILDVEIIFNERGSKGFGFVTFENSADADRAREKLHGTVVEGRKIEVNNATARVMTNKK
UCUCCAGUCAUUGUAAUGUCUACAAGGAAUGCACAAUGGAGUGCUCAGAUCACUAAAAGGAGCAUCAGUGGCCCAAUUCCUCUUACUUUGGGACACACUGUCCACACUCC: 0.397
AGUGCACCGUCUGCUCUGUGAACUCCUCCCACCAGGCCCUUCUUACCCCACGCGUGUCUGUCCCCCUCGUUCUGUAGCGUUUGUACAUAAUAAAACAAUGGAGUGGAGAC: 0.5
GGAAGCUUAGGGCACAUUGGUUCCAGCCUAGCCAGUUUCUCACCCUGGGUUGGGGUCCCCCAGCAUCCAGACUGGAAACCUACCCAUUUUCCCCUGAGCAUCCUCUAGAU: 0.392
GUAGUCUCCUGGGUGUGUUUGGCUUGGCCUUGGCAUGGGCGCAGGCCCAGUGACAAAGACUCCUCUGGGCCUGGGGUGCAUCCUCCUCAGCCCCCAGGCCAGGUGAGGUC: 1.47
GAUUUAUAAACACAGUGCUCUGAAAGGAAUCUUACAGACUGUAUCAGUCUAGCUUUUAAUUAAGUUAUUUUGUAUAGCUUAAUUUGUAAAACAUUUUAUGUUUUUUAGAU: 0.458
CUGCAGAAUAGAGCAGAAUAGAGAAAGUAAGCCUGAAGCUGAGUGCCUCAGCCACAAACCUAAAGGAGCUGCCUGUGUCUGACAGCACAGCCAUUCCAUCUCUUCCGUCC: 0.264
UUCAGACACACGAGUCCUCGGAACUGCCUGGCUGCCUGUCACGCAUGCUCUGAGUCAGAACACACCAACGCUCUGCUGUGGCUCCUAGGGAAGCAUUCAUGGUCCUCUGU: 6.25
ACCCUUUGCUGCUGACCUCGGCUGCUCCUCUCACAGACCCUCUUUGGCCCCCUGCCCUCCUCUCCCUCCCAGAUGGACCCUUCCAUGGGAGGAAAUAAAGUUUCCAUCGC: 0.301
UGCAGGUCAAGUGUAGGGUUGUCAGAGAACAUGGCGCUCUUGGGUGCACCUGUUUGUUCUGCUAGGUUUAGGUUGAGCUCUGGAGUUGUUUGAAGUCUGCGAUGAAAAAU: 1.82
UGUGGACUGUAUUUUGAUGCAACAACAAAGAAACUGUUCACUUUUCAAAUAAAAUGAUAUGUCAGAUUCAUUUUUGGUUCCUUGAAUACAUGUAAGAUGGGGAAAUAUGC: 1.15
GGAACCUAGAGUUAGUCAGGAGUAAAGUCUGUCUAAGGGGAUCGGCAAGCUGCCAGACAACUCUGGCUCCUGUCAACCUUUUCACCUGGUGCCACAAAAGUAUUUCUGCU: 0.326
UCUUUGAAAUAGUUUGUGUGAAGGUGAAAGUGCAGUUCAGUAAUAAAUGGUGUCUGUGACUCUGUGACCACAGCCUUGGCUCUGCGCCGCAUGAGUAAGGGGGAAACUGC: 1.47

Sample 4
Target: Histone acetyltransferase KAT6A, winged helix 2, GST fusion (KAT6A, Homo sapiens, UniProt Q92794, residues 85-181)
Technique: protein binding microarray
Form: double-stranded DNA, one strand shown
Medium: in vitro
Tested at: not given
Setting: 8-mer, flanks averaged, mean of 2 arrays, mostly near background
Relative to: not given
Direction: higher = stronger binding
Quantity: E-score
Construct (chain): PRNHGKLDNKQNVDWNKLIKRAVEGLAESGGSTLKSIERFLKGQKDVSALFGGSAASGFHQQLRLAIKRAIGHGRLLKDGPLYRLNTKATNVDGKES
ACATGGCA: 0.0208
ACCTACCA: -0.114
CCAAGGGG: 0.23
AGACGAAA: 0.0763
ATTGAACG: -0.046
GGCTACAC: 0.03
ATCCACCG: 0.0517
CCGACACC: -0.213
CCCGCTTA: 0.087
TCTTTCCA: -0.143
GTCTTGCA: 0.113
ATGTGGAG: -0.0388
CAGTGTCC: 0.0519
AAAAGATA: 0.066
GTTGCCTA: 0.0719
ATTCAATA: 0.0181
AATGGAAG: 0.0548
AAGTGAAT: 0.0662
CCGGTTCA: 0.0104
CCACGAGC: -0.0547
CCTTCTCC: 0.0218
CTATGGTC: -0.097

Repeated from above (sample 1):
TTAGGTATCGACAGTGGGTTAGTGCTA: 2.49 z-score
GACGAACTGGGGTATCGAGAAGTGCTA: 0.293 z-score
GACGGTTTCGGGTTCCGGGACGTGCTA: 7.59 z-score
TTAGCTTTCGGTATCGGTTAGTGCTAG: 11.7 z-score
